Measured values pooled from the literature.
Each line is one published result; not all experiments were run side by side. Several values in a cell are separate wells, animals, samples, runs or records. ± gives the spread as reported.

Compound | assay | system | setting | scale | quantity | result
CCCCN1C(=O)c2cccc3c(NCCCCCN4CCOCC4)ccc(c23)C1=O | – | dioxane | – | – | absorption maximum | 426 nm
Cc1ncsc1-c1ccc(CNC(=O)[C@@H]2C[C@@H](O)CN2C(=O)[C@@H](NC(=O)COCC(C)(COCCOCCOCCNC(=O)C[C@@H]2N=C(c3ccc(Cl)cc3)c3c(sc(C)c3C)-n3c(C)nnc32)COCCOCCOCCNC(=O)C[C@@H]2N=C(c3ccc(Cl)cc3)c3c(sc(C)c3C)-n3c(C)nnc32)C(C)(C)C)cc1 | – | C57BL/6 mouse male, plasma | intravenous, 5 mg/kg | – | clearance | 3.02 mL/min/kg
CCOC(=O)CNC(=O)CN1CCN(CC(=O)NCC(=O)OCC)CCN(CC(=O)NCC(=O)OCC)CCN(CC(=O)NCC(=O)OCC)CC1.[177Lu+3] | – | Sprague-Dawley rat, bone | intravenous, dose not given, 2 h | – | biodistribution | 2.75 ± 1.14 % injected dose/organ
CCC(=[NH+][Pt-2]1([OH])([OH])([Cl])[NH2+]CCC[NH2+]1)N(C)CCNc1c2ccccc2[nH+]c2ccccc12.O=[N+]([O-])[O-].O=[N+]([O-])[O-] | shake-flask | 1-octanol/0.9% NaCl | pH 5 | – | logD | -1.24 ± 0.02
COc1ccc2c(c1)C(=O)C(=C[O-])C2.[Na+] | chemical stability, HPLC-MS | borate buffered saline | pH 10.2, no N-acetyl-lysine | – | degradation rate constant | 0 h⁻¹
CC(C)[C@H](NC(=O)[C@H](Cc1c[nH]c2ccccc12)NC(=O)[C@H](CCCNC(=N)N)NC(=O)[C@H](CCCNC(=N)N)NC(=O)[C@@H](NC(=O)[C@@H](NC(=O)[C@H](CCCNC(=N)N)NC(=O)[C@@H](NC(=O)[C@@H](NC(=O)[C@H](CCCNC(=N)N)NC(=O)[C@H](CCCNC(=N)N)NC(=O)[C@@H](NC(=O)[C@H](Cc1c[nH]c2ccccc12)NC(=O)[C@H](CCCNC(=N)N)NC(=O)[C@H](CCCNC(=N)N)NC(=O)[C@@H](NC(=O)[C@H](CCCNC(=N)N)NC(=O)[C@H](CCCNC(=N)N)NC(=O)[C@@H](NC(=O)[C@H](Cc1c[nH]c2ccccc12)NC(=O)[C@H](CCCNC(=N)N)NC(=O)[C@@H](N)CCCNC(=N)N)C(C)C)C(C)C)C(C)C)C(C)C)C(C)C)C(C)C)C(C)C)C(=O)N[C@@H](CCCNC(=N)N)C(=O)N[C@@H](CCCNC(=N)N)C(=O)O | dipstick | CD-1 mice | intravenous, 15 mg/kg, 6-24 h | – | urinary protein | 30 mg/dL
CC(C(=O)O)n1nc(Cn2cc3cc(OCC[18F])c(Cl)cc3n2)c2ccccc2c1=O (racemic) | – | rat, blood | 30 min | – | tracer uptake | 1.04 %ID/g
Cc1c(Cc2cccc(OC(C)(C)C(=O)O)c2)c2ccc(C(=O)N[C@H](C)c3cccc(C(C)(C)C)c3)cc2n1C | metabolic stability | mouse, liver microsomes | – | – | half-life | 31.3 min
CC(=O)N([O-])CCCCCNC(=O)CCC(=O)N([O-])CCCCCNC(=O)CCC(=O)N([O-])CCCCCN.[89Zr+4] | radio-TLC | aqueous buffer | 3 d, pH 7.2, 37 °C, 89Zr-labelled complex, added: MgCl2 10-fold excess | – | intact complex | 98.2 ± 2%
CN[C@H](CC(C)C)C(=O)N[C@H]1C(=O)N[C@@H](CC(N)=O)C(=O)N[C@H]2CN[C@H]3C(=O)N[C@H](C(=O)N[C@H](C(=O)NCCCNC(=N)N)c4cc(O)cc(O)c4-c4cc3ccc4O)[C@H](O)c3ccc(c(Cl)c3)Oc3cc2cc(c3O[C@@H]2O[C@H](CO)[C@@H](O)[C@H](O)[C@H]2O[C@H]2C[C@](C)(NCc3ccc(-c4ccc(Cl)cc4)cc3)[C@H](O)[C@H](C)O2)Oc2ccc(cc2Cl)[C@H]1O | – | mouse | intravenous, 10 mg/kg | – | clearance | 0.47 mL/min/kg
C#CCNC(=O)C(CC(C)(C)F)NC(c1ccc(-c2ccc(S(C)(=O)=O)cc2)cc1)C(F)(F)F (centres unmarked) | – | PBS | 100 µM, 23 h, pH 7.45, 37 °C, added: GSH 5 mM | – | GSH adduct formation | < 1%
O=C(Nc1cnccc1-c1ccc([18F])cc1)c1ccnc(NC(=O)C2CC2)c1 | ex vivo gamma counting | GSK-3β transgenic mice, early-stage, cerebellum | intravenous, 120 min, mean, P-gp inhibitor pretreatment, added: tariquidar 15 mg/kg iv | – | SUV | 0.24
COc1cccc(OC)c1-c1cc(C(=O)NC2(C(=O)O)C3CC4CC(C3)CC2C4)nn1-c1ccc(C(=O)NCCNC(=O)[C@H](CCCCNC(=O)[C@H](CC(C)C)NC(=O)C2OC2C(=O)O)NC(=O)CN2CCN(CC(=O)[O-])CCN(CC(=O)[O-])CCN(CC(=O)[O-])CC2)cc1C(C)C.[177Lu+3] (mixture of isomers) | – | mouse, HT-29 xenograft | 168 h post injection, biodistribution | reference: tumour over liver uptake | tumour-to-liver ratio | 1.76
C=C(NC(=O)c1csc(-c2nc3c(cc2O)-c2nc(cs2)C(=O)NC(C(C)O)C(=O)NC(=C(C)OC)c2nc(cs2)C(=O)NC2c4nc(cs4)C(=O)NC(COC(=O)c4c5c6c(cccc6n4O)COC(=O)C(OC4CC(C)(O)C(N(C)C)C(C)O4)C2OC5)c2nc-3cs2)n1)C(N)=O (centres unmarked) | – | cynomolgus monkey, female, plasma | intravenous infusion, 1 mg/kg single dose | – | MRT(0-last) | 53.4 min
C[N+](C)(CCOCCOCCOCCNC(=S)Nc1ccc(C[C@H]2CN(CC(=O)[O-])CCN(CC(=O)[O-])CCN2CC(=O)[O-])cc1)C[c-]1cccc1.[64Cu+2].[Fe+2].c1cc[cH-]c1 | – | nude mice, BxPC-3 xenograft, tumour | 8 h, no pretargeting | – | tumour uptake | 0.2 %ID/g
CCCCN1C(=O)c2cccc3c(NCCCCCCCCN4CCOCC4)ccc(c23)C1=O | – | methanol | – | – | fluorescence lifetime | 8.4 ns
CN([O-])C(=O)CN1CCNCCN(CC(=O)N(C)[O-])CC1.[89Zr+4] | – | mouse, muscle | intravenous, 4 h | – | tracer uptake | 0.09 %ID/g
COc1cccc(OC)c1-c1cc(C(=O)NC2(C(=O)O)C3CC4CC(C3)CC2C4)nn1-c1ccc(C(=O)N(C)CCCN(C)CCCN(C)C(=O)[C@H](CCCCNC(=O)[C@H](CC(C)C)NC(=O)C2OC2C(=O)O)NC(=O)CN2CCN(CC(=O)[O-])CCN(CC(=O)[O-])CCN(CC(=O)[O-])CC2)cc1C(C)C.[177Lu+3] (mixture of isomers) | – | mouse, HT-29 xenograft, kidney | 168 h post injection | – | tissue uptake | 3.1 %ID/g
O=C(Nc1cnccc1-c1ccc([18F])nc1)c1ccnc(NC(=O)C2CC2)c1 | PET imaging | FVB/NJ mice, both sexes, brain | intravenous, 120 min post-injection | – | median SUV | 0.035

Compound | assay | system | setting | scale | quantity | result
CN1CCC[C@]1(C)/C=C/S(=O)(=O)NC(=O)Nc1c2c(cc3c1CC(O)C3)CCC2 (some centres unmarked) | – | human, plasma | oral, 100 mg twice daily of parent drug, day 1, metabolite of dosed drug | – | AUC(0-tau) | 65.7 µg·h/mL
CC(C)C[C@H](NC(=O)[C@H](CCCNC(=N)N)NC(=O)[C@H](Cc1ccccc1)NC(=O)[C@H](Cc1ccccc1)NC(=O)[C@@H](NC(=O)[C@H](COP(=O)(O)O)NC(=O)[C@@H](N)COP(=O)(O)O)[C@@H](C)O)C(=O)N[C@@H](Cc1ccccc1)C(=O)N[C@@H](CC(N)=O)C(=O)N[C@@H](CCCNC(=N)N)C(=O)N[C@@H](C)C(=O)N[C@@H](CCCCN)C(=O)N[C@@H](CCCNC(=N)N)C(=O)N[C@@H](Cc1c[nH]cn1)C(=O)N[C@@H](Cc1c[nH]cn1)C(=O)NCC(=O)N[C@@H](Cc1ccc(O)cc1)C(=O)N[C@@H](CCCCN)C(=O)N[C@@H](CCCNC(=N)N)C(=O)N[C@@H](CCCCN)C(=O)N[C@@H](Cc1ccccc1)C(=O)N[C@@H](Cc1c[nH]cn1)C(=O)O | HPLC-UV | human saliva | 0.5 h, 37 °C, added: initial 1 mg/mL | – | peptide concentration | 0.982 mg/mL
CCCCCCCCCCCCCCCOC(=O)/C=C/c1ccc(O)cc1 | – | red blood cells | concentration not given | reference: Triton X-100 | hemolysis | 0.45%
Cc1nc(N)nc2c1C(=O)N[C@@H](c1ccc(F)cc1-c1cccc(OCC[18F])n1)C2 | ex vivo biodistribution | C57BL/6 mice, heart | intravenous, 1 MBq, 30 min | – | SUV | 1.56 ± 0.07
CCCCN1C(=O)c2cccc3c(NCCN4CCOCC4)ccc(c23)C1=O | – | ethyl acetate | – | – | absorption maximum | 426 nm
COC(=O)[C@@]1(C)C=C(C(=O)Nc2cccc(C(=O)Nc3ccc(Nc4nccc(-c5cccnc5)n4)c(C)c3)c2)C(=O)CC1 | – | rat Wistar male, plasma | 1 µM, 60 min | – | remaining compound | 6.6% and 4.5%
O=C(NS(=O)(=O)c1cccs1)c1cc2ccccc2n1Cc1ccc(Br)c2ccccc12 | – | KM mouse, chronic hyperuricaemia model | dose not given, day 19 | – | body weight | 31.5 g and 37.7 g and 35.3 g and 37.4 g and 35.7 g and 32.8 g
C=CC(=O)Nc1cc(Nc2nccc(-c3c[nH]c4ccccc34)n2)c(OC)cc1N(C)CCN(C)C | storage stability | human dried blood spot | 10 d, on ice, LQC level | – | recovery | 59.1%
CC(CCC(=O)NCC(=O)O)C1CCC2C3CCC4CC(OC5OC(C(=O)O)C(O)C(O)C5O)CCC4(C)C3CC(O)C12C (centres unmarked) | – | human, plasma | control | – | mean daily plasma concentration | 0.151 ± 0.024 µM
CC(C)(O)c1ncc([S@](N)(=O)=NC(=O)Nc2c3c(cc4c2CCC4)CCC3)s1 | refers to: Psychiatric disorders | healthy human volunteers | oral, 200 mg once daily, 14 days, spray-dried dispersion | – | subjects with adverse events | 14%
CN1CCC[C@]1(C)/C=C/S(=O)(=O)NC(=O)Nc1c2c(cc3c1CCC3O)CCC2 (some centres unmarked) | – | human, plasma | oral, 100 mg twice daily of parent drug, day 1, metabolite of dosed drug | – | AUC(0-tau) | 513 µg·h/mL
CCCC[C@H](NC(=O)CCCCCCCNC(=O)CN1CCN(CC(=O)O)CCN(CC(=O)O)CC1)C(=O)N[C@H]1CC(=O)NCCCC[C@@H](C(N)=O)NC(=O)[C@H](Cc2c[nH]c3ccccc23)NC(=O)[C@H](CCCNC(=N)N)NC(=O)[C@@H](Cc2ccccc2)NC(=O)[C@H](Cc2c[nH]cn2)NC1=O [fluorine-18 labelled] | – | C57 mice B16-F10 melanoma, muscle | intravenous, 0.37 MBq, 2 h | – | tissue uptake | 0.46 ± 0.68 %ID/g
Cc1ccc(OCC(=O)N(Cc2cccs2)c2ccn[nH]2)cc1 | – | Sprague-Dawley rat liver microsomes | 10 µM, 10 min | – | remaining parent compound | 29.5%
[2H]C1([2H])CC[C@@H](C[C@@H](C#N)NC(=O)[C@@H]2[C@@H]3[C@H](CN2C(=O)[C@@H](NC(=O)C(F)(F)F)C(C)(C)C)C3(C)C)C(=O)N1 | – | mouse liver microsomes | microsomes 0.5 mg/mL | – | intrinsic clearance | 136 µL/min/mg
CN(CCNCc1cc(C(=O)[O-])ccc1[O-])CCNCc1cc(C(=O)[O-])ccc1[O-].[Cl-].[Fe+3].[K+].[K+] | – | mouse serum | 0.20 mM, 4 h, outcome no effect | – | relaxivity change | no effect
CCCCN1C(=O)c2cccc3c(NCCCN4CCOCC4)ccc(c23)C1=O | – | toluene | – | – | absorption maximum | 427 nm
CN1CCC[C@]1(C)/C=C/S(=O)(=O)NC(=O)Nc1c2c(cc3c1CCC3)CC=C2 | – | human, plasma | oral, 100 mg twice daily of parent drug, metabolite of dosed drug | reference: day 14 over day 1 | AUC(0-tau) accumulation ratio | 1.8
CCCCN1C(=O)c2cccc3c(NCCCCN4CCOCC4)ccc(c23)C1=O | – | acetonitrile | – | – | absorption maximum | 431 nm
C=C[C@]1(C)C[C@@H](OC(=O)CSc2ccc(NC(=O)c3ccco3)cc2)[C@]2(C)[C@H](C)CC[C@]3(CCC(=O)[C@H]32)[C@@H](C)[C@@H]1O | – | M. gallisepticum-infected chickens, plasma | intramuscular, 5 mg/kg single dose | – | absorption half-life | 5.34 min and 5.4 min

Repeated from above:
Compound | assay | system | setting | scale | quantity | result
[2H]C1([2H])CC[C@@H](C[C@@H](C#N)NC(=O)[C@@H]2[C@@H]3[C@H](CN2C(=O)[C@@H](NC(=O)C(F)(F)F)C(C)(C)C)C3(C)C)C(=O)N1 | – | mouse liver microsomes | microsomes 0.5 mg/mL | – | intrinsic clearance | 136 µL/min/mg
CN(CCNCc1cc(C(=O)[O-])ccc1[O-])CCNCc1cc(C(=O)[O-])ccc1[O-].[Cl-].[Fe+3].[K+].[K+] | – | mouse serum | 0.20 mM, 4 h, outcome no effect | – | relaxivity change | no effect
CCCCN1C(=O)c2cccc3c(NCCCN4CCOCC4)ccc(c23)C1=O | – | toluene | – | – | absorption maximum | 427 nm
CN1CCC[C@]1(C)/C=C/S(=O)(=O)NC(=O)Nc1c2c(cc3c1CCC3)CC=C2 | – | human, plasma | oral, 100 mg twice daily of parent drug, metabolite of dosed drug | reference: day 14 over day 1 | AUC(0-tau) accumulation ratio | 1.8
